Assay results from different studies.
Parts stem from different laboratories: compare values within a part only. Substitutions count along the parent as printed.

Series 1 — technique: RNA Bind-n-Seq; molecule type: RNA; sample: in vitro; tested at: 365 nM; reference: no-protein control; direction: higher = stronger binding
Target: RNA binding protein fox-1 homolog 2, RRM domain, GST-SBP tag (RBFOX2, Homo sapiens, UniProt O43251-10, residues 100-194)
Setting: natural RNA segment, single round, ends assumed
Constant ends, left off below: GGGAGUUCUACAGUCCGACGAUC … UGGAAUUCUCGGGUGCCAA
Construct (chain): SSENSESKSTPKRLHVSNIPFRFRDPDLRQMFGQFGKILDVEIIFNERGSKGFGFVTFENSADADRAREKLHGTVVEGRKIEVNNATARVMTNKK
Sequence	RBNS enrichment (R)
CACUUAUUUUUUAAAGCGUCAUGUGAGAUAUUUUUUUAAACAAAACAAAAUAAUGGUAAUUAAAGAAGCAAAGCUUCAGCCAUACUAAGGGGUUUCUUGUCUGCAGAGUG	0.548
CUUUUUUACAACCCUUGUCCUUGGAGUUCUUAAGAUGUUGAGCGUUACCAAAUAAACCGCAUGAGACACAGCGAGCAGUGAAGUCUUUACAAGAUUAUGCAUUUGCCGAU	2.5
AAAAAUUUGAACACUGGCUAAAGAUAAUUGCUAUUUAUUUUUACAAGAAGUUUAUUCUCAUUUGGGAGAUCUGGUGAUCUCCCAAGCUAUCUAAAGUUUGUUAGAUAGCU	0.803
CCAACACAGACACCCAAGCAGAGCAAUCAGUUAGUGAAUUGAAUGGAAAUAAACGCUUUAGUUAUAAUAUGACCCCUGUUCUCUGUAAGUUCCAAGGGAGACCUUGGUAC	0.625
GGUUGAUAUAGCGACAUUACCUGGGCUCUGUGCUGUCCUGUGGGUGGAGGCCAUUAUCACUGGGCUGCUGCUUUCCUGGGCAAGCCACUCUCUAUUUUUCUGCAAAGGUC	0.336
CUGGAAGAAGUUGACAUCUAUGAGAAACAAUCCAAAGAAGAAACGGAUUCUGUAGUGCUGAUAGAAAACCUGAAGAAAGCAGCUCCUUGAUGGGGAGAAGUGAUUUCUUU	0.271
AAGGCGCACAGAGCUGCUCCUGCCUAUGUGAUCUUUAAGUAGACCAGGAGCCAGGAAACCACUUUAAGAUGUAAGCCAUUGUGUGUCUCUAGUUUCUUAAGCAGACCAAG	0.341
AGACUCUAGAAAAAAGGGCUGAGGGGAAGCAAGACGUAAAGAGUUUUCAUCCUGUAUCACAGUGUUUUUAUUGCUCGCCCAGACACCAUGUGCAAUAAGACUGGUGUUCG	0.339
CCCGCUAACUUCAGCCUCUCAUCUGCUGCUCCGGGCUGAGGGACUAGAGGACAUCUCGGUCGUUUGAGGGGCAUGGCCAGUCGUGGCAGGCCGGCCUUCAGCGUCCGGUC	0.518
GCAUGGGCUUUUGCUCCAUCACCGCAAAGUUCUGCAGGGGCCCUGGGCAGUGCUGGCCUGUCUGACGUGCUGCCCUUGGCCUCCUUGCUCUCCACGUGUGGAAGCGCAUC	0.963
AUUGAAACCAGUGUAACAGCACAAAGAGCUCUAAUGUGUAACACUUCCUCUGAAAUGGAUAUAAAGAUGUAAAUUUUAUAACAGCACUGUUUAUUCUGAUGCAUUCUGAU	1.02
CCAUCUGUACUUGGUCCAACUGCAACUCAUCAUCGGUGACUGGUUAUCACACCAUCGCUGGCCCCUUUGGGCCCUGCAUGUAGUGUGGGAGGCUCCUGUUAGCUCCUCAC	2.44

Series 2 — target: CCNE1, cyclin fold, Cln2 fusion (human); technique: yeast growth competition, sequencing; sample: yeast; setting: strong parent motif; reference: not given; direction: higher = stronger binding
Starting sequence: E2F1 docking peptide (human); PPVKRRLDLETDH
Variant	normalised enrichment score
L7R	-0.371
L7A	0.104
T11W	4.22
V3N	0.971
R6A	0.112
K4S	0.921
H13W	1.32
P1G	1.11
D8V	2.61
R6W	0.615
P2H	2.23
D8L	2.26
K4G	-0.361
V3T	0.438
R6K	1.17
T11H	0.874
T11V	1.97
R5Y	0.0954

Series 3 — technique: aptamer microarray, sandwich; molecule type: DNA with 2'F-ANA; sample: in vitro; tested at: 200 nM; with: Cy3 exosite-II aptamer, 400 nM; direction: higher = stronger binding; sequence: GGTTGGTGTGGTTGG
Target: Prothrombin, mature alpha-thrombin (F2, Homo sapiens, UniProt P00734)
Setting: whole 15-mer aptamer, many near background
Modification	mean fluorescence intensity
2'F-ANA at 1 2 3 4 5 7 8 9 11 12 14	59.9 a.u.
2'F-ANA at 1 6 9 12 15	352 a.u.
2'F-ANA at 1 2 3 4 7 8 9 10 11 12 13	76.5 a.u.
2'F-ANA at 1 3 4 6 9 10 12 15	75.9 a.u.
2'F-ANA at 1 2 4 6 7 9 10 12	55.3 a.u.
2'F-ANA at 1 5 10 11 12 13 14 15	58.9 a.u.
2'F-ANA at 1 4 5 6 7 8 9 10 12 13 15	46.7 a.u.
2'F-ANA at 2 3 5 6 7 8 9 12 14 15	58.3 a.u.
2'F-ANA at 2 8 12 13	667 a.u.
2'F-ANA at 2 5 6 7 8 11 12	123 a.u.
2'F-ANA at 3 5 6 8 13 15	84.3 a.u.
2'F-ANA at 1 2 6 11	121 a.u.
2'F-ANA at 2 3 6 8 10 12	413 a.u.
2'F-ANA at 1 2 3 4 7 9 11 12 14 15	67.8 a.u.
2'F-ANA at 2 3 4 5 7 8 9 12 13	129 a.u.
2'F-ANA at 1 6 8 11 12 15	301 a.u.
2'F-ANA at 1 2 3 5 7 8 9 13 14 15	49 a.u.
2'F-ANA at 3 5 6 7 8 10 13 14 15	52.5 a.u.
2'F-ANA at 1 4 5 7 9 10 12 15	46.3 a.u.
2'F-ANA at 1 3 4 5 7 8 9 12 13	81.1 a.u.
2'F-ANA at 2 3 4 5 6 7 10 13 14 15	61.8 a.u.
2'F-ANA at 1 4 5 6 10 15	46.4 a.u.
2'F-ANA at 3 4 6 7 10 11 15	227 a.u.
2'F-ANA at 2 6 12 14	172 a.u.
2'F-ANA at 1 4 5 8 10 11 12 13	46.1 a.u.

Series 4 — technique: universal PBM; molecule type: double-stranded DNA, one strand shown; sample: in vitro; tested at: 600 nM; direction: higher = stronger binding
Target: Sal-like protein 4, full length isoform A (SALL4, Homo sapiens, UniProt Q9UJQ4, residues 1-1053)
Chain of UniProt Q9UJQ4 (whole entry, looked up): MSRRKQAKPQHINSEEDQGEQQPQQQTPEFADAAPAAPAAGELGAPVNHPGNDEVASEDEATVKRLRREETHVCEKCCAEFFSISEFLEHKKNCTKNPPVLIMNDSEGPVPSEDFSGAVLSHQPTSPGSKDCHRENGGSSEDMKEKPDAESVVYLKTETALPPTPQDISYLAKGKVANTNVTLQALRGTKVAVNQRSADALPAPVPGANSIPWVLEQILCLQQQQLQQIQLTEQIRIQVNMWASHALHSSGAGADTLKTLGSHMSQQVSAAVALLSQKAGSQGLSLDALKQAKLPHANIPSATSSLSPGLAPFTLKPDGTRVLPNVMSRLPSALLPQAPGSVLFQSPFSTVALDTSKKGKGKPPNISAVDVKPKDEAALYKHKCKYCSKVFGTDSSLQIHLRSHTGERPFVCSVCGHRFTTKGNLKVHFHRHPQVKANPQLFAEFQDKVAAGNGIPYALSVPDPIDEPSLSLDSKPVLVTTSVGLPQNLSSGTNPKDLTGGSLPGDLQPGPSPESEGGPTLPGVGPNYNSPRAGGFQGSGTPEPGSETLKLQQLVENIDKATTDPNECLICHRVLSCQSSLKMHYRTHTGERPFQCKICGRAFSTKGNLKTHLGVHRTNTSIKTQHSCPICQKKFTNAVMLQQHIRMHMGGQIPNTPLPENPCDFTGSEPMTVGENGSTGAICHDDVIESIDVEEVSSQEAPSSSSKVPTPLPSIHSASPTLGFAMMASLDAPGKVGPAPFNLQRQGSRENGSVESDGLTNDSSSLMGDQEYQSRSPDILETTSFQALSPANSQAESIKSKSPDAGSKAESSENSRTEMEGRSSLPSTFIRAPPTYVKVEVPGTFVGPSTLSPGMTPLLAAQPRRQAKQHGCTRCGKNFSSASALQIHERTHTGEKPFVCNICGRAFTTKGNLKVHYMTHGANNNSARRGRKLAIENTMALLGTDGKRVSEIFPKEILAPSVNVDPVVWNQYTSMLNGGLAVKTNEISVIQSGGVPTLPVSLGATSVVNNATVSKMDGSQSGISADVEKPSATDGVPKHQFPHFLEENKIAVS
Setting: 8-mer, flanks averaged, mean of replicates
Sequence	E-score
AGAGTGCT	0.0295
AGCCACCT	-0.237
ATGATGCC	0.0771
CGAAGGAC	-0.185
CTAGTCAC	0.0759
GAACGCGA	-0.141
ATCAGGAG	-0.0247
TAGCCCGA	-0.198
CTCGTTGC	0.0211
AGAGAGCT	-0.081
AAGGCCCA	-0.184
GTGCTTGA	0.111
AGGCGTCG	-0.306
GGTGCACC	-0.342
AAGTCATA	0.319
CCCACCTC	-0.21
CTATTAGA	0.227
AGGATGTC	-0.0821
CCGGGTTC	-0.364
CAGCGATG	-0.156
AACTAAGG	0.117

Series 5 — technique: RNA Bind-n-Seq; molecule type: RNA; sample: in vitro; tested at: 200 nM; setting: whole 134-nt RNA, ends assumed; with: 150 mM LiCl; reference: input library; direction: higher = stronger binding; each molecule: 7-deaza-guanosine replaces G
Target: Ras GTPase-activating protein-binding protein 1, full length (G3BP1, Homo sapiens, UniProt Q13283)
Chain of UniProt Q13283 (whole entry, looked up): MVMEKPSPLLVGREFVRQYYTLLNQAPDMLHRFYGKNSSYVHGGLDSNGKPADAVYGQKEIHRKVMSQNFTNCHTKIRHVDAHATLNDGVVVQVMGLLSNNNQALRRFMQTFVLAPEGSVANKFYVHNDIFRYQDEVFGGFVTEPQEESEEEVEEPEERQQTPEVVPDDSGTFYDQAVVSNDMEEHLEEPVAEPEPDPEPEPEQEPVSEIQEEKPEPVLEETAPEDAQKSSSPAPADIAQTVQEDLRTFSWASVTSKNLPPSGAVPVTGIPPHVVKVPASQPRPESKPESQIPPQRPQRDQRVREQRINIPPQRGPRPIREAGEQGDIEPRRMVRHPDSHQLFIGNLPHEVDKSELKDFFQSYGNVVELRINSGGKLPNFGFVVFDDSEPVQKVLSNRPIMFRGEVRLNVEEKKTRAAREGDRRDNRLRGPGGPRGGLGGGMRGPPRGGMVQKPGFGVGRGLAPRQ
Constant ends, left off below: GGGAGUUCUACAGUCCGACGAUC … UGGAAUUCUCGGGUGUCAAGG
Sequence	log2 enrichment
CACAGACAACAAGCACCCACACAGACACAGAGGGAAGGGGUUGGGAUGGGGACAGGGUGCACAGCAGGGCGGGGUAGGACCCCAGCCCCU	0.235
UCCUGUGCUACACAUCGUAUGUACCGAAUCGGGUUUUUGGGGUUUUUGGGUUUUUGGGGAAAGUAUUAUGUUACGCCGUUCGGAUCUGCA	-0.00856
GCAGGAAGUAAAAACAAAUGGAAAUGCUUCGGAUAGUGGCAGGGGUGGGGGUUGCUAAGGAAAGGGUGGGAUGGGAGUGAAAAAAGAGUU	0.0413
CUGUGCUACACAUCGUAUGUACCGAAUCGGGAAAAAAAGGGGAAAAAAAGGAAAAAAAGGGGAAAGUAUUAUGUUACGCCGUUCGGAUCU	0.223
CUCAAGUCCUGUGCUACACAUCGUAUGUACCGAAUCGGUUUGGGUUUGGUUUGGAAAGUAUUAUGUUACGCCGUUCGGAUCUGCACUUCC	0.206
CUCAAGUCCUGUGCUACACAUCGUAUGUACCGAAUCGGGUGGGAGGGAAAGGGAAAGUAUUAUGUUACGCCGUUCGGAUCUGCACUUCCA	0.165
UGGCCCUGGUGGCAUGCGGGGAGGAAGAGGUGGCCUCAUGGAUCGUGGUGGUCCCGGUGGAAUGUUCAGAGGUGGCCGUGGGGGAGACAG	-0.104
UCCUGUGCUACACAUCGUAUGUACCGAAUCGGGAAAAAGGGAAAAAGGGAAAAAAAGGGAAAGUAUUAUGUUACGCCGUUCGGAUCUGCA	0.489
CUGUGCUACACAUCGUAUGUACCGAAUCGGGGUUUUUUUGGGUUUUUUUGGGUUUUUUUGGAAAGUAUUAUGUUACGCCGUUCGGAUCUG	1.36
CACAGACAACACGCACCCACACAGACACAGAGGGAAGGGGUUGGGAUGGGGACAGGGUGCACAGCAGGGCGGGGUAGGACACCAGCCCCU	-0.0106
UCAAGUCCUGUGCUACACAUCGUAUGUACCGAAUCGGUGGAAAAAGGAAAAAGGAAAGUAUUAUGUUACGCCGUUCGGAUCUGCACUUCC	-0.789

For quick reference, copied from above (series 3):
Modification	mean fluorescence intensity
2'F-ANA at 1 3 4 6 9 10 12 15	75.9 a.u.
2'F-ANA at 1 4 5 8 10 11 12 13	46.1 a.u.
2'F-ANA at 3 5 6 7 8 10 13 14 15	52.5 a.u.
2'F-ANA at 1 4 5 6 7 8 9 10 12 13 15	46.7 a.u.
2'F-ANA at 1 2 3 4 7 9 11 12 14 15	67.8 a.u.
2'F-ANA at 2 8 12 13	667 a.u.
2'F-ANA at 1 5 10 11 12 13 14 15	58.9 a.u.
2'F-ANA at 1 2 3 5 7 8 9 13 14 15	49 a.u.
2'F-ANA at 2 3 4 5 7 8 9 12 13	129 a.u.
2'F-ANA at 2 3 5 6 7 8 9 12 14 15	58.3 a.u.
2'F-ANA at 1 2 3 4 5 7 8 9 11 12 14	59.9 a.u.
2'F-ANA at 1 2 6 11	121 a.u.
2'F-ANA at 2 6 12 14	172 a.u.
2'F-ANA at 1 6 9 12 15	352 a.u.
